# Measured values collected from several papers.
# Parts stem from different laboratories: compare values within a part only. Positions count from the first letter of the parent shown.

# Study 1
# Target: RNA binding protein fox-1 homolog 2, RRM domain, GST-SBP tag (RBFOX2, Homo sapiens, UniProt O43251-10, residues 100-194)
# Method: RNA Bind-n-Seq
# Form: RNA
# Matrix: in vitro
# Concentration: 365 nM
# Setting: natural RNA segment, single round, ends assumed
# Relative to: no-protein control
# Reading: higher = stronger binding
# All sequences stand within: GGGAGUUCUACAGUCCGACGAUC … UGGAAUUCUCGGGUGCCAA
# Target sequence (chain): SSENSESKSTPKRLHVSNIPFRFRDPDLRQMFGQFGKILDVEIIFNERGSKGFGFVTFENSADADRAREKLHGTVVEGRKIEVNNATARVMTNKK
Strand,RBNS enrichment (R)
GGACCUCAAGUAGACUGCUCCUUGUACUUGAAGCGCUUACCUUUUGAUUUCCUGACUUUAUGUUCUUGUGUUAUAAUGUUAUCCUAACCUCCAAAGAUAUUUGCACUGCU,0.885
ACUGACUUAAAUCAAAUUUCCCUGACAUACAUUUUUUUUAAUCUGUGCCAAAAAUGUGUUUUCAAAGAAAAUCUUAUUUUCAUACUCAAGACUUUGUACCGUCACUCAUU,0.461
AAUCCUCAAAAGAACAAAAUGCUUAACUUUAUCUCUUAAUUUCUAAAGGUAAAUAACCUAGGUUCAGCUUUUGCUUAAACAUUAAAUAUCUUUUCCAUUUUUUAAUGUUU,0.882
UCAGCCCACCAGGGUCCAGGGAGAUGUUCGUUCUCGCUUUAAGUCAGGAGUCACAAAUGACUUUUUUUUUUCAAUUAAGGAAAAAGCUCCAUCUCUACCUUUAACAUCAC,0.27
GGUGGCCUUAACUACAGUGGAGGUGGAACUUCCCAGGAGGGGAAGGGACAGACCAGCCCCAGCCGCUGGGCCAACUUCCAAUCAUUCCAGCUAGAAGAGCUUCCCCCUGA,0.467
UAGUGGAGAAAUGGCAUUUUAAGAGGAGUCUCUUCUCAACUUACCUGAGAGUCGAAUUCUUCUCUUCCCUAACCAAUGAAGCUAAGUGGUUAUCCCAGAAACUUGUCUUC,0.327
GGUCCUUGGGCCUGCAGUCCCCUCAUACUCACCCUUCACCCAACAUAUUUUCCGGUGCUGAUAUGUUUCCAGACUCCAGCGCAACCUGGGGUGCUCUCCAGACCCGUGCA,0.72
AGCUGUCCCAGCCCCUCCCAUUUCUUGGGCAGGGCUCUUUUCCUGUUGUGUCUUCCCCCAGGGCCUGUCCUGUACCGAGCUCUGUCUGUUCCAGCCUUCAUCCUUCCUGG,0.457

# Study 2
# Target: Histone acetyltransferase KAT6A, winged helix 1, GST fusion (KAT6A, Homo sapiens, UniProt Q92794, residues 1-85)
# Method: protein binding microarray
# Form: double-stranded DNA, one strand shown
# Matrix: in vitro
# Concentration: not given
# Setting: 8-mer, flanks averaged, mean of 2 arrays, mostly near background
# Relative to: not given
# Reading: higher = stronger binding
# Residues (chain): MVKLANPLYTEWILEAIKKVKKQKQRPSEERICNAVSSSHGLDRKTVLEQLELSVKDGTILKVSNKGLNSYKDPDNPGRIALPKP
Strand,E-score
AGACGACC,0.00183
ACCGACAA,0.0287
ACGCGAGT,0.185
CATATGCC,0.0185
GTATTCAC,-0.0902
CTGGGGTC,-0.165
ACATTGTC,-0.00971
GAAGCCGC,0.384
ATATGGAC,-0.14
TAAATTGA,-0.2
AGTTGGCG,0.0997
ATGCAGGC,-0.134
ACCACGAG,-0.0896
ATTGGGTG,-0.15
GCCTTGGA,-0.134
ACCGTCCT,0.158
GACGCGAA,-0.000155
CGCAAGCA,0.055
GCAGCACA,-0.117
GGTATGAC,0.164
GGTCCTAA,0.0197
GACAAACA,-0.127
CTGTGTCC,-0.0792
AATATGAA,-0.154
CCAAGCCA,-0.165

# Study 3
# Target: Phosphate system positive regulatory protein PHO4, full length, GST-tagged (PHO4, Saccharomyces cerevisiae, UniProt P07270, residues 1-312)
# Method: competition protein-binding microarray
# Form: double-stranded DNA, one strand shown
# Matrix: in vitro
# Concentration: 2 µM
# Setting: whole 60-bp probe, lowest competitor level
# With: Cbf1 competitor, 0.05 µM
# Reading: higher = stronger binding
# All sequences stand within: … GTCTTGATTCGCTTGACGCTGCTG
# Residues (chain): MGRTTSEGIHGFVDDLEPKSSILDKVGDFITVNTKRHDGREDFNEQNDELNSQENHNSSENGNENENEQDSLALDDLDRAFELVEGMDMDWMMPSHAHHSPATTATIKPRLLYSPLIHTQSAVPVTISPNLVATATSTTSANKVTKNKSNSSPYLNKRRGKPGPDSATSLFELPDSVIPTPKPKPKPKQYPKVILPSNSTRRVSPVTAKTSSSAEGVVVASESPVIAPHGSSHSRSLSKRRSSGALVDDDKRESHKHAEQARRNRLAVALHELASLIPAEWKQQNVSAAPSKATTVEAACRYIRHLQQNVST
Strand,fluorescence intensity
CTTCTGTAAATTTAACACGTGTTTTGACGCGCCCCG,17700 a.u.
GGGTACGGACCCCGTCACGTAAGACGATGCCGATGC,3930 a.u.
GTCTTGTCTCATTGTGTTGTGGGTGTCCCCACTTCA,5110 a.u.
GTAACGAAGCTTACCAGCATGATAATACCGTAAATC,3820 a.u.
AGAGAATCGGGCATATTCGTGCGGATTCCTTGTCCG,5860 a.u.
TGCATGGATATATTTGGCCCTGTATCAAGTTCAAAC,3360 a.u.
CGTCCTAGTGATTTTCACGTGAGTTCCATGAGGAAG,10100 a.u.
GTTAAGCATAAAAAGCACGTGCTTTAGATGTTTTCA,16800 a.u.
GTCGAAAAACCTCCGCACGGCAGAAGTGTTATGCTG,5530 a.u.
AAATTACTAAGTTGTCACAACACTTACCCCGTATGA,4190 a.u.
GTCTTGTCTCATTGACACGTGTTTTTCCCCACTTCA,15300 a.u.
AAAGCGGTAATTTGTGAAGTGGGTGCAGATATCTAT,4020 a.u.
ACAATTTCTACTCCACACGTGGAATACGAAACGGCC,13800 a.u.
GCTGGCCTCGCCCGTCACAAAAGAAATGAGCTCACT,2600 a.u.
GACAACGACTTTGCAGACGTGCCGATTCCACCCATC,5850 a.u.
AAAGCGGTAATTTTTCACGTGTCGTCAAATATCTAT,13200 a.u.
ATTGAAGGTGTAGAGGCCGTGACGAATTGATGTGGT,4890 a.u.
TGCGCAACAACTTGGTGTGTGGGTGTATGTCTAGAA,6050 a.u.
TTCTTACTAAAATGTAGCGTGCATCCTTATAGGGCT,8230 a.u.

# Study 4
# Target: ATF2, bZIP domain (human)
# Method: DHFR protein complementation
# Matrix: yeast
# Setting: single substitutions, most at no-binding floor
# Relative to: wild-type JUN-FOS pair
# Reading: higher = stronger binding
# Starting sequence: JUN, bZIP domain (human); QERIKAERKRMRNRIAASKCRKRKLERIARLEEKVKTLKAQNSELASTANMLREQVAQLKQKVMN; partner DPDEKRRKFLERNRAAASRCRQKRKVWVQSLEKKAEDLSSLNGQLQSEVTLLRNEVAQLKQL
Substitution,binding fitness [natural log]
E32W,-1.33
S43A,-1.23
A29M,-1.47
L52W,-1.61
L31R,-1.51
T48P,-1.47
L52C,-1.5
V56Q,-1.48
L45I,-1.55
K34Q,-1.07
S47V,-1.39
V35C,-1.36
K39D,-1.46
T37A,-1.38
S47M,-1.29
Q41V,-1.38
R53L,-1.57
A46V,-1.33
M51K,-1.39

# Some of these lines once more (study 2):
Strand,E-score
ATGCAGGC,-0.134
ACCACGAG,-0.0896
ATTGGGTG,-0.15
GCCTTGGA,-0.134
ACCGTCCT,0.158
GACGCGAA,-0.000155
CGCAAGCA,0.055
GCAGCACA,-0.117
